Earlier results, collected from citations in different studies.
Each numbered part shows a few of the values that one paper quotes. ± marks the error that the study gave.

Series 1 — organism: SARS-CoV-2; effect on: cytopathic effect; cells: Caco-2; tested at: 10 µM
With `O=C1C=Cc2cc(Br)ccc2C1=O` the inhibition was -4.8%.
For `O=c1cc(-c2ccc(O)cc2)oc2cc(O)cc(O)c12`, the inhibition was -2.9%.
`C=C1C(=O)[C@]23[C@H](O)[C@H]1CC[C@@H]2[C@@]12CO[C@]3(O)C[C@@H]1C(C)(C)CC[C@@H]2O` has an inhibition of -4.1%.
With `CC(C)c1cc(CNc2nc(Nc3cc(C4CC4)[nH]n3)cc(N3CCN(C)CC3)n2)on1` the inhibition was 4.9%.
`O=C(O)C1[O][Sb]2[O]C(=O)C([O]2)C(C(=O)O)[O][Sb]2[O]C(=O)C1[O]2` (stereo not shown) gave an inhibition of 43.6%.
`COc1cccc(C(=O)CCN[C@@H](C)[C@H](O)c2ccccc2)c1` has an inhibition of 6.4%.
For `O=c1cc(-c2ccccc2)oc2cc(O)c(O)c(O)c12`, the inhibition was -5.6%.
The inhibition of `CN1Cc2ccccc2[C@@H]2c3cccc4[nH]cc(c34)C[C@H]21` is reported as -8%.
For `CC[C@H](CO)Nc1nc(NCc2ccc(-c3ccccn3)cc2)c2ncn(C(C)C)c2n1`, the inhibition was 76.6%.
`O=NN(CCCl)C(=O)NC1CCCCC1` gave an inhibition of -3.8%.
`C[C@H](NC(=O)/C(C#N)=C/c1cccc(Br)n1)c1ccccc1` gave an inhibition of 8.2%.
The inhibition of `O=C(O)c1c(Cl)c(Cl)c(Cl)c(Cl)c1-c1c2cc(I)c(=O)c(I)c-2oc2c(I)c(O)c(I)cc12` is reported as 15.3%.
For `CC[n+]1c(-c2ccccc2)c2cc(N)ccc2c2ccc(N)cc21`, the inhibition was 0.424%.
The inhibition of `CC(C)N(CCC(=O)c1ccc2ccccc2c1)Cc1ccccc1` is reported as 4.8%.

Other studies, line by line
The inhibition of `O=c1c(O)c(-c2ccc(O)c(O)c2)oc2cc(O)ccc12` is reported as -0.12% (SARS-CoV-2; viral cytopathic effect; Vero E6; 20 µM).
The Km of `Nc1ncnc2c1ncn2[C@@H]1O[C@H](COP(=O)(O)OP(=O)(O)OP(=O)(O)O)[C@@H](O)[C@H]1O` is reported as 320 ± 50 µM (Replicase polyprotein 1ab, nsp12 with nsp7/nsp8 (rep, Severe acute respiratory syndrome coronavirus 2, UniProt P0DTD1); substrate; templating base U).
`Cc1nnc(C(=O)NC(C)(C)c2nc(C(=O)NCc3ccc(F)cc3)c(O)c(=O)n2C)o1` gave an EC50 of 36 ± 5 nM (HIV-1; viral replication; integrase G118R mutant).
`CC[C@H]1CN2CCc3cc(OC)c(OC)cc3[C@@H]2C[C@@H]1C[C@H]1NCCc2cc(OC)c(OC)cc21` has an IC50 of 46 nM (SARS-CoV-2; cytopathic effect; USA_WA1/2020).
For `O=C(NCc1c(F)cc(F)cc1F)c1cn2c(c(O)c1=O)C(=O)N1[C@H]3CC[C@H](C3)O[C@@H]1C2`, the EC50 was 9.1 ± 1.6 nM (HIV-1; viral replication, single-round vector infection; IN G118R).
For `Cn1c(Cn2ccc(C(F)(F)F)c(Oc3cc(Cl)cc(C#N)c3)c2=O)n[nH]c1=O`, the EC50 was 13.9 ± 4.83 nM (HIV-1; viral replication; MT-4, K103N mutant).
`CC(C)(C)[C@H](NC(=O)C(F)(F)F)C(=O)N1C[C@H]2[C@@H]([C@H]1C(=O)N[C@H](C#N)C[C@@H]1CCNC1=O)C2(C)C` gave an EC90 of 7600 ± 2800 nM (SARS-CoV-2; viral replication; Calu-3).
For `O=C(O)c1cc(/N=N/c2ccc(O)c(C(=O)O)c2)ccc1O`, the inhibition was -0.11% (SARS-CoV-2; viral cytopathic effect; Vero E6; 20 µM).
`CCC(CC)COC(=O)[C@H](C)N[P@](=O)(OC[C@H]1O[C@@](C#N)(c2ccc3c(N)ncnn23)[C@H](O)[C@@H]1O)Oc1ccccc1` has an EC50 of 46 nM (SARS-CoV-2; viral replication, RT-qPCR; Caco-2).
The EC50 of `C[C@@H]1CCO[C@H]2Cn3cc(C(=O)NCc4ccc(F)cc4F)c(=O)c(O)c3C(=O)N12` is reported as 13 ± 5 nM (HIV-1; viral replication; integrase G118R mutant).
The Ki of `Fc1ncccc1OC[C@@H]1C=CCN1` is reported as 0.5 nM (rat alpha4beta2* nAChR; radioligand binding; rat brain homogenate; together with: [3H]cytisine).
For `C[C@H]1CO[C@@H]2Cn3cc(C(=O)NCc4ccc(F)cc4F)c(=O)c(O)c3C(=O)N12`, the EC50 was 35.5 ± 2.1 nM (HIV-1; viral replication, single-round vector infection; IN G118R).
For `COc1ccc2c(O[C@@H]3C[C@H]4C(=O)N[C@]5(C(=O)NS(=O)(=O)C6CC6)C[C@H]5/C=C\CCCCN(C)C(=O)[C@@H]4C3)cc(-c3nc(C(C)C)cs3)nc2c1C`, the EC50 was 14000 nM (SARS-CoV-2; viral replication; Huh7.5).
With `CCC(CC)COC(=O)[C@H](C)N[P@](=O)(OC[C@H]1O[C@@](C#N)(c2ccc3c(N)ncnn23)[C@H](O)[C@@H]1O)Oc1ccccc1` the IC50 was 10000 nM (SARS-CoV-2; cytopathic effect; USA_WA1/2020).
